Results from different studies.
Compare with care: the assays were run in different laboratories. Values joined by “and” are separate records of one study, mostly repeats; a detail may differ. ± marks the error that the study gave.

| SMILES | target or system | assay | system | conditions | scale | endpoint | result |
| --- | --- | --- | --- | --- | --- | --- | --- |
| C=CCN1CC(=O)N2[C@@H](Cc3ccc(O)cc3F)C(=O)N(Cc3cccc(N4CC(N5CCN(CC)CC5)C4)n3)C[C@@H]2N1C(=O)NCc1ccccc1 | – | – | advanced solid tumour patients | oral, 30 mg twice daily, grade ≥3, dose-escalation | – | treatment-related diarrhoea | 0% |
| CC[C@H](C)[C@@H]([C@@H](CC(=O)N1CCC[C@H]1[C@H](OC)[C@@H](C)C(=O)N[C@@H](Cc1ccccc1)C(=O)NCCCO)OC)N(C)C(=O)[C@@H](NC(=O)[C@H](C(C)C)N(C)C)C(C)C | – | – | Sprague Dawley rat | intravenous, 120 h, dosed as NaPi2b ADC, recovery-corrected | – | fraction excreted via CYP metabolism | 0.0376 |
| C=CCn1c(=O)c2cnc(Nc3ccc(N4CCN(C)CC4)cc3)nc2n1-c1ccc2c(n1)[C@@](O)(CC)CC2 | – | – | female NOD/SCID mouse OVCAR-3 xenograft, plasma | oral, 100 mg/kg once daily, :3 | – | Cmax | 6480 ng/mL |
| CC[C@@H]1C=CC(=O)O[C@@H]1C[C@@H](O)[C@H](C)[C@H](OC)[C@@H](C)Cc1ccccc1 | – | mass spectrometry | human liver microsomes | concentration not given | – | number of metabolites | 17 |
| Oc1ccc(/C=C/c2cc(O)cc(O)c2)cc1 | – | – | rat, azoxymethane-injected, blood at sacrifice | 100 mg/kg | – | creatinine | 0.38 mg/dL and 0.29 mg/dL and 0.3 mg/dL |
| Cc1ccc([C@@H]2O[C@H](CO)[C@@H](O)[C@H](O)[C@H]2O)cc1Cc1ccc(-c2ccc(F)cc2)s1 | – | – | Japanese type 2 diabetes patients | 100 mg, day 6, 24 h urine collection | baseline: baseline | urinary magnesium excretion change | 10.7 mg |
| COC[C@@H](CC(C)C)NC(=O)c1ccc(C)c(C)c1 | – | – | Sprague-Dawley rats, plasma | oral, 10 mg/kg | baseline: female over male | AUC(0-t) ratio | 1.37 |
| FC(F)(F)c1ccc(/S(=N\c2ccccc2)C2CC2)cc1 (stereo not drawn) | – | – | human liver microsomes | – | baseline: hepatic blood flow | metabolic stability | > 89% |
| CC(C(=O)NCC(=O)NCC(CNC(=O)CNC(=O)C(C)N1CCN(CC(=O)[O-])CCN(CC(=O)[O-])CCN(CC(=O)[O-])CC1)(CNC(=O)CNC(=O)C(C)N1CCN(CC(=O)[O-])CCN(CC(=O)[O-])CCN(CC(=O)[O-])CC1)CNC(=O)CNC(=O)C(C)N1CCN(CC(=O)[O-])CCN(CC(=O)[O-])CCN(CC(=O)[O-])CC1)N1CCN(CC(=O)[O-])CCN(CC(=O)[O-])CCN(CC(=O)[O-])CC1.[Gd+3].[Gd+3].[Gd+3].[Gd+3] (stereo not drawn) | – | ICP-MS | cynomolgus monkey, feces | 5 days post-injection | baseline: dose | cumulative fecal excretion | 0.4% |
| Cc1cc(Nc2ncc(Cl)c(Nc3ccccc3S(=O)(=O)C(C)C)n2)c(OC(C)C)cc1C1CCNCC1 | – | – | CD1 nude mouse | oral, 20 days | – | MTD | 50 mg/kg |
| N[C@@H](CC(=O)O)C(=O)OC(C(=O)O)c1ccccc1[N+](=O)[O-].O=C(O)C(F)(F)F (mixture of isomers) | – | 1H NMR, dark | 50 mM sodium phosphate | concentration not given, pH 9.0, room temperature, 12.5% DMSO-d6 | – | hydrolysis half-life, B isomer | 26.2 ± 0.4 h |
| COC(=O)c1ccc(N2CCN(C)CC2)c(NC(=O)c2cccc(OC)c2)c1 | HBL-1 | – | – | 1 µM, 120 h | – | viability | 95.1% |
| COc1ccc2c(=O)n(C)c(-c3ccccc3)nc2c1 | – | – | Sprague-Dawley rat, male, stomach | oral, 30 mg/kg, 2 h | – | tissue concentration | 125 ng/mL |
| C=CC[C@@H]1/C=C(\C)C[C@H](C)C[C@H](OC)[C@H]2O[C@@](O)(C(=O)C(=O)N3CCCC[C@H]3C(=O)O[C@H](/C(C)=C/[C@@H]3CC[C@@H](O)[C@H](OC)C3)[C@H](C)[C@@H](O)CC1=O)[C@H](C)C[C@@H]2OC | – | – | kidney transplant recipients, whole blood | oral, dose not given, late post-transplant phase | – | patients with subtherapeutic C0 | 25% |
| N#Cc1ccc2c(c1)[C@H]1CCCN(C(=O)c3ccc4[nH]cnc4c3)[C@H]1C2 | – | – | human, plasma | oral, 240 mg once daily, day 28 | – | CL/F at steady state | 75.3 mL/min |
| COc1cc2c(cc1OC)C(=O)C(CC1CCN(Cc3ccccc3)CC1)C2 (stereo not drawn) | – | – | human subjects | unit not given | baseline: placebo | LSEQ getting to sleep | -0.02 |
| C=CC(=O)Nc1cc(Nc2nccc(-c3cn(C)c4ccccc34)n2)c(OC)cc1N(C)CCN(C)C | – | storage stability | human plasma samples | 30 d, -80 °C, MQC level | baseline: nominal concentration | percentage recovery | 10.9% |
| O=C(N/N=C/c1ccccc1O)c1ccncc1 | – | – | ADS buffer | 57 µM, 7 days, -80 °C, long-term storage | – | stability | 98.3% |

| SMILES | target or system | assay | system | conditions | scale | endpoint | result |
| --- | --- | --- | --- | --- | --- | --- | --- |
| CC[C@H](C)[C@H](NC(=O)[C@H](Cc1ccccc1)NC(=O)[C@H](CCC(=O)O)NC(=O)[C@H](CCCCNC(=O)COCCOCCNC(=O)COCCOCCNC(=O)CC[C@H](NC(=O)CCCCCCCCCCCCCCCCC(=O)O)C(=O)O)NC(=O)[C@H](C)NC(=O)[C@H](C)NC(=O)[C@H](CCC(N)=O)NC(=O)CNC(=O)[C@H](CCC(=O)O)NC(=O)[C@H](CC(C)C)NC(=O)[C@H](Cc1ccc(O)cc1)NC(=O)[C@H](CO)NC(=O)[C@H](CO)NC(=O)[C@@H](NC(=O)[C@H](CC(=O)O)NC(=O)[C@H](CO)NC(=O)[C@@H](NC(=O)[C@H](Cc1ccccc1)NC(=O)[C@@H](NC(=O)CNC(=O)[C@H](CCC(=O)O)NC(=O)C(C)(C)NC(=O)[C@@H](N)Cc1cnc[nH]1)[C@@H](C)O)[C@@H](C)O)C(C)C)C(=O)N[C@@H](C)C(=O)N[C@@H](Cc1c[nH]c2ccccc12)C(=O)N[C@@H](CC(C)C)C(=O)N[C@H](C(=O)N[C@@H](CCCNC(=N)N)C(=O)NCC(=O)N[C@@H](CCCNC(=N)N)C(=O)NCC(=O)O)C(C)C | – | 12-lead Holter ECG | healthy humans | subcutaneous, 1.5 mg once weekly, 18 h, steady state | baseline: placebo | QTcB change from baseline | 9 ms |
| CC(C)C[C@H](NC(=O)[C@H](CC(C)C)NC(=O)[C@H](Cc1c[nH]c2ccccc12)NC(=O)[C@H](CCC(=O)O)NC(=O)[C@@H](NC(=O)[C@H](Cc1ccccc1)NC(=O)[C@H](CCC(=O)O)NC(=O)[C@H](CCCCNC(=O)COCCOCCNC(=O)COCCOCCNC(=O)CC[C@H](NC(=O)CCCCCCCCCCCCCCCCCCC(=O)O)C(=O)O)NC(=O)[C@H](C)NC(=O)[C@H](CCCCN)NC(=O)[C@H](CCCCN)NC(=O)[C@H](CCC(=O)O)NC(=O)[C@H](CC(=O)O)NC(=O)[C@H](CC(C)C)NC(=O)[C@H](Cc1ccc(O)cc1)NC(=O)[C@H](CCCCN)NC(=O)[C@H](CO)NC(=O)[C@H](Cc1ccc(O)cc1)NC(=O)[C@H](CC(=O)O)NC(=O)[C@H](CO)NC(=O)[C@@H](NC(=O)[C@H](Cc1ccccc1)NC(=O)[C@@H](NC(=O)CNC(=O)[C@H](CCC(N)=O)NC(=O)C(C)(C)NC(=O)[C@@H](N)Cc1c[nH]cn1)[C@@H](C)O)[C@@H](C)O)C(C)C)C(=O)N[C@@H](CCC(=O)O)C(=O)NCC(=O)NCC(=O)N1CCC[C@H]1C(=O)N[C@@H](CO)C(=O)N[C@@H](CO)C(=O)NCC(N)=O | – | – | human, plasma | subcutaneous, 16 mg once weekly, week 20, median | – | tmax,ss | 12 h |
| Cc1cc(NC2CCN(C(=O)OC3CCN(C(=O)/C=C/CN(C)C)C3)CC2)n2ncc(C(C)C)c2n1 (stereo not drawn) | – | Phase I dose escalation CTCAE v4.0, refers to: pain in extremity | patients with advanced solid tumours | dose not given, QD dosing grade 3 or higher | – | patients with adverse event | 0% |
| CCN1CCN(Cc2ccc(NC(=O)c3ccc(C)c(NC(=O)c4cncc(-c5cccs5)c4)c3)cc2C(F)(F)F)CC1 | – | – | C57BL/6 mice, epithelial lining fluid | intraperitoneal, 20 mg/kg | – | Tmax | 0.25 h |
| COc1ccnc(C(N)=O)c1O | – | aerobic soil incubation | soil | worst-case terminal value, for exposure modelling | – | DT50 | 114 days |
| CCOc1c([C@H](C)n2nc(C)c3c(N)ncnc32)cc(Cl)c(F)c1[C@@H]1CNC(=O)C1 | – | refers to: QTcF change above 60 ms | previously treated B-cell malignancy | oral, 5 mg once daily, baseline QTcF ≤450 ms | baseline: baseline | ECG observations | 0% |
| CNC(=O)c1ccc(-c2cnc3ncc(Cc4ccc5ncccc5c4)n3n2)cc1F | – | – | Japanese patients | oral, 400 mg, grade 3/4 | – | γGT increased dose reduction/interruption | 0% |
| Nc1ncnc2c1ncn2[C@H]1C[C@@H]2OP(=O)(O)OC[C@H]3O[C@@H](n4cnc5c(N)ncnc54)C[C@@H]3OP(=O)(O)OC[C@H]2O1 | – | – | non-tumour-bearing mice, blood | intravenous, 1 mg/kg | – | serum albumin | 29.8 ± 4.63 g/L |
| Cc1nc(-c2ccc(OCC(C)C)c(C#N)c2)sc1C(=O)O | – | – | healthy Chinese subjects | oral, 40 mg single, fed | – | participants with AEs | 25% |
| Cl.[2H]C([2H])([2H])CC(=O)c1cnc(NC(=O)C2CC2)cc1Nc1cccc(-c2ncn(C([2H])([2H])[2H])n2)c1OC | – | median | human | oral, 20 mg once daily, day 7, fasted, liquid, multiple dose | – | Tmax | 1.12 h |
| CNC(=O)c1cc(Oc2ccc(NC(=O)Nc3cc(C(C)(C)C)nn3-c3ccc4ncccc4c3)c(F)c2)ccn1 | – | – | human | oral, dose not given, cycles 1 and 2, High AUC(0-4 h) subgroup | – | patients with any AE of special interest | 89% |
| O=C(O)CCC(=O)O.[2H]C([2H])([2H])Oc1cc(C)c2[nH]ccc2c1CN1CC[C@@H](C2CC2)C[C@H]1c1ccc(C(=O)O)cc1 | – | multiple ascending dose | healthy Chinese subjects | 125 mg twice daily | – | subjects with sinus bradycardia TEAE | 37.5% |
| C[C@H]1Oc2cc(cnc2N)-c2c(nn(C)c2C#N)CN(C)C(=O)c2ccc(F)cc21 | – | population PK | patients with severe renal impairment, plasma | oral, 100 mg, median, single dose | – | clearance | 80.2 mL/min |
| C[C@@H](c1ncncc1F)[C@](O)(Cn1cncn1)c1ccc(F)cc1F | – | refers to: blurred vision | human | oral, 400 mg | – | drug-related TEAE incidence | 0% |
| CCc1nn(C)c2nc(-c3ccc(C(=O)O)cc3)nc(NCc3ccc(F)cc3)c12 | – | – | NSG mice | dose not given, day 4 of treatment | – | body weight | 20 g and 20.8 g and 20.9 g and 22.1 g |
| CC(C)(C(=O)N1CCOc2c(C#N)cncc2C1)C(F)F | – | – | healthy humans, both sexes, plasma | oral, 20 mg single dose, 2-fold dose increase | baseline: 20 mg over 10 mg | AUClast dose proportionality ratio | 2.11 |
| O=C1NCCc2nc(OCc3cccc(F)c3)ccc21 | – | refers to: loss of Righting | Sprague-Dawley rat male | oral, 100 mg/kg, 30 min | direction not given | Irwin test score | 0 |
| COc1ccc([C@@H](O)c2cc(-c3ncnc4cc(N5CCOCC5)ccc34)c(F)cc2Cl)nn1 | – | – | locally advanced rectal cancer patients | 100 mg, added: capecitabine and radiotherapy | – | nausea TEAE incidence | 67% |

Excerpt of the above:
| SMILES | target or system | assay | system | conditions | scale | endpoint | result |
| --- | --- | --- | --- | --- | --- | --- | --- |
| C=CC[C@@H]1/C=C(\C)C[C@H](C)C[C@H](OC)[C@H]2O[C@@](O)(C(=O)C(=O)N3CCCC[C@H]3C(=O)O[C@H](/C(C)=C/[C@@H]3CC[C@@H](O)[C@H](OC)C3)[C@H](C)[C@@H](O)CC1=O)[C@H](C)C[C@@H]2OC | – | – | kidney transplant recipients, whole blood | oral, dose not given, late post-transplant phase | – | patients with subtherapeutic C0 | 25% |
| N#Cc1ccc2c(c1)[C@H]1CCCN(C(=O)c3ccc4[nH]cnc4c3)[C@H]1C2 | – | – | human, plasma | oral, 240 mg once daily, day 28 | – | CL/F at steady state | 75.3 mL/min |
